{"data": "Assay results gathered from unrelated publications", "note": "Compare with care: the assays were run in different laboratories. Values joined by “and” are separate records of one study, mostly repeats; a detail may differ. ± marks the error that the study gave."}
{"Structure (SMILES)": "O=C(Nc1ccc([C@H]2[C@@H](F)[C@@H](F)C[C@@H](F)[C@H]2F)cc1)C1CC1(F)F (some centres unmarked)", "assay": "hepatocyte stability", "system": "cryopreserved human hepatocytes", "conditions": "1 µM", "measurement": "hepatic clearance", "result": "14 mL/min/kg"}
{"Structure (SMILES)": "O=C(N1CCCCC1)C12CC(c3ccccc3)(C1)C2(Br)Br", "assay": "metabolic stability", "system": "human, liver microsomes", "conditions": "2 µM, 25 min, pH 7.4", "measurement": "compound remaining", "result": "31%"}
{"Structure (SMILES)": "C=CC(=O)Nc1cc(Nc2nccc(-c3c[nH]c4ccccc34)n2)c(OC)cc1N(C)CCN(C)C", "assay": "storage stability", "system": "human dried blood spot samples", "conditions": "30 d, -80 °C, LLOQ level", "how to read": "baseline: nominal concentration", "measurement": "percentage recovery", "result": "42.2%"}
{"Structure (SMILES)": "OC1(C(F)(F)F)CCN(c2nc(Nc3ccnc(C(F)(F)F)c3)nc(-c3cccc(C(F)(F)F)n3)n2)C1 (centres unmarked)", "system": "monkey, both sexes, plasma", "conditions": "oral, 1 mg/kg, day 14", "measurement": "Cmax", "result": "774 ± 276 ng/mL"}
{"Structure (SMILES)": "c1cc(C2CCCCC2)ccc1-c1ccc(N2CCCC2)nc1", "assay": "liver microsome stability", "system": "dog liver microsomes", "conditions": "1 µM", "measurement": "hepatic clearance", "result": "23 mL/min/kg"}
{"Structure (SMILES)": "O=C(Nc1cnccc1-c1ccc([18F])nc1)c1ccnc(NC(=O)C2CC2)c1", "system": "FVB/NJ mice (both sexes), urine", "conditions": "intravenous, dose not given, 120 min", "measurement": "SUV", "result": 12.9}
{"Structure (SMILES)": "C=C(NC(=O)c1csc(-c2nc3c(cc2O)-c2nc(cs2)C(=O)NC(C(C)O)C(=O)NC(=C(C)OC)c2nc(cs2)C(=O)NC2c4nc(cs4)C(=O)NC(COC(=O)c4c5c6c(cccc6n4O)COC(=O)C(OC4CC(C)(O)C(N(C)C)C(C)O4)C2OC5)c2nc-3cs2)n1)C(N)=O (centres unmarked)", "system": "cynomolgus monkey, both sexes, plasma", "conditions": "intravenous infusion, 3 mg/kg multiple doses, day 7", "measurement": "Cmax", "result": "19100 ng/mL"}
{"Structure (SMILES)": "COc1cccc(OC)c1-c1cc(C(=O)NC2(C(=O)O)C3CC4CC(C3)CC2C4)nn1-c1ccc(C(=O)N(C)CCOCCOCCN(C)C(=O)[C@H](CCCCNC(=O)[C@H](CC(C)C)NC(=O)C2OC2C(=O)O)NC(=O)CN2CCN(CC(=O)[O-])CCN(CC(=O)[O-])CCN(CC(=O)[O-])CC2)cc1C(C)C.[177Lu+3] (mixture of isomers)", "system": "mouse, HT-29 xenograft", "conditions": "72 h post injection, biodistribution", "how to read": "baseline: tumour over kidney uptake", "measurement": "tumour-to-kidney ratio", "result": 0.37}
{"Structure (SMILES)": "CN(C)c1cccc(-c2ccc(C3CCCCC3)cc2)c1", "assay": "liver microsome stability", "system": "dog liver microsomes", "conditions": "1 µM", "measurement": "hepatic clearance", "result": "27 mL/min/kg"}
{"Structure (SMILES)": "COCC1CN(C2CCN(c3cc(OC)c(Nc4ncc(Br)c(Nc5ccc6c(c5P(C)(C)=O)OCCO6)n4)cc3C)CC2)C1", "system": "EGFR-mutant NSCLC patients, plasma", "conditions": "oral, 30 mg single dose, geometric mean", "measurement": "t1/2", "result": "28.9 h"}
{"Structure (SMILES)": "COc1ccc(CN2CCC(F)(F)C(COc3ccc(F)c(C)c3)C2)cc1F (centres unmarked)", "assay": "equilibrium dialysis", "system": "human plasma", "measurement": "fu", "result": "< 0.0003"}
{"Structure (SMILES)": "O=C(CN1CCOCC1)Nc1ccc([C@H]2[C@@H](F)[C@@H](F)C[C@@H](F)[C@H]2F)cc1", "assay": "liver microsome stability", "system": "dog liver microsomes", "conditions": "1 µM", "measurement": "hepatic clearance", "result": "10 mL/min/kg"}
{"Structure (SMILES)": "C=C1C[C@]2(C(=O)OC)C=C(C(=O)Nc3cccc(C(=O)Nc4ccc(Nc5nccc(-c6cccnc6)n5)c(C)c4)c3)C(=O)[C@H]1C2", "system": "Wistar rat, male, plasma", "conditions": "10 µM, 20 min", "measurement": "compound remaining", "result": "4.28% and 2.02%"}
{"Structure (SMILES)": "CC(C(=O)O)n1nc(Cn2cc3cc(OCC[18F])c(Cl)cc3n2)c2ccccc2c1=O (racemic)", "system": "rat, liver", "conditions": "1 h", "measurement": "tracer uptake", "result": "0.82 %ID/g"}
{"Structure (SMILES)": "CCC1=[N+]2N=C(/C=C/C=C/c3ccccc3)C(=O)O[B-]2(c2ccccc2)Oc2cc(N(CC)CC)ccc21 (centres unmarked)", "system": "toluene", "measurement": "fluorescence emission maximum", "result": "548 nm"}
{"Structure (SMILES)": "O=C(CC(F)(F)F)Nc1ccc([C@H]2[C@@H](F)[C@@H](F)C[C@@H](F)[C@H]2F)cc1", "assay": "hepatocyte stability", "system": "cryopreserved rat hepatocytes", "conditions": "1 µM", "measurement": "hepatic clearance", "result": "31 mL/min/kg"}
{"Structure (SMILES)": "C/C(N)=N/C(=N\\S(=O)(=O)c1ccc(C(F)(F)F)cc1)N1C[C@H](c2ccccc2)C(c2ccc(Cl)cc2)=N1", "system": "simulated gastric fluid", "conditions": "1 µM, pH 1.2, 37 °C", "measurement": "t1/2", "result": "> 2 h"}
{"note": "Repeated from above:"}
{"Structure (SMILES)": "O=C(Nc1ccc([C@H]2[C@@H](F)[C@@H](F)C[C@@H](F)[C@H]2F)cc1)C1CC1(F)F (some centres unmarked)", "assay": "hepatocyte stability", "system": "cryopreserved human hepatocytes", "conditions": "1 µM", "measurement": "hepatic clearance", "result": "14 mL/min/kg"}
{"Structure (SMILES)": "O=C(N1CCCCC1)C12CC(c3ccccc3)(C1)C2(Br)Br", "assay": "metabolic stability", "system": "human, liver microsomes", "conditions": "2 µM, 25 min, pH 7.4", "measurement": "compound remaining", "result": "31%"}
